Published values pooled from the literature.
Protocols differ between the studies behind these lines. ± gives the spread as reported.

CC(=O)c1c(C)c2cnc(Nc3ccc(C4CCN(CCS(C)(=O)=O)CC4)cn3)nc2n(C2CCCC2)c1=O
half-life (nude mouse, MDA-MB-435S xenograft, blood; oral, 100 mg/kg): 4.25 h

C[C@H](O)c1cnc(NS(=O)(=O)c2ccc(Cl)c(Cl)c2)nc1
half-life (hepatocytes, HSD17B13 knockout with AAV control, C57BL/6J mouse, male; 1 µM): > 12.5 h

Cc1ncc2n1-c1ccc(Cl)cc1C(c1ccccc1F)=NC2
half-life (wild-type mouse, plasma; intravenous, 0.3 mg/kg, 14-day CMC pretreatment): 0.297 ± 0.0183 h

O=c1c2cc(Cl)c(CO)cc2[nH]c(=S)n1Cc1cncnc1
half-life (mouse, plasma; intravenous): 0.469 h

COc1ccc2c(c1)[C@]13CCCC[C@@H]1[C@H](C2)N(C)CC3
half-life (C57BL/6 mouse, plasma; oral): ~1 h

COc1cccc2c1CCCC2CCCN1CCN(C2CCCCC2)CC1 (centres unmarked)
half-life (CD-1 mouse, male, plasma; intraperitoneal, 3 mg/kg): 2.82 h

Nc1ccc2cc3ccc(N)cc3nc2c1
half-life (male CD-1 mouse, plasma; intravenous, 15 mg/kg): 1.7 h

CC(c1cncnc1)n1c(=S)[nH]c2ccc(Cl)cc2c1=O (centres unmarked)
half-life (mouse, plasma; intravenous): 1.6 h

COc1cc2c(cc1OC)CN(CCc1ccc(NC(=O)c3cccc4c(=O)c5cccc(OC)c5[nH]c34)cc1)CC2
half-life (CD-1 mouse, male, lung; intraperitoneal, 30 mg/kg): 24.5 h

Cc1ccccc1C(=O)NN=Cc1ccc(O)c(Br)c1
half-life (mouse C3H/HeN, plasma; intravenous, 0.8 mg/kg): 0.983 h

CC/C(=C(\c1ccccc1)c1ccc(OCCN(C)C)cc1)c1ccccc1
half-life (CD-1 mouse, male, lung; intraperitoneal, 30 mg/kg): 7.17 h

CN(C)C1(CNC(=O)c2ccc3c(c2)CCN3C(=O)c2ccccc2)CCOCC1
half-life (ICR mouse, male, plasma; intraperitoneal, 30 mg/kg): 1.08 ± 0.05 h

CCCCCCCC(=O)N[C@@H](CCCCN)C(=O)N[C@@H](CCCCN)C(=O)N[C@@H](C)C(=O)N[C@@H](CC(C)C)C(=O)N[C@@H](CCCCN)C(=O)N[C@@H](CC(C)C)C(=O)N[C@@H](C)C(=O)N[C@@H](CCCCN)C(=O)N[C@@H](CCCCN)C(=O)N1CCC[C@H]1C(=O)N[C@@H](CC(C)C)C(=O)N[C@@H](CCCCN)C(=O)N[C@@H](CC(C)C)C(=O)N[C@@H](CC(C)C)C(=O)N[C@@H](CCCCN)C(N)=O
half-life (mouse ICR CD1 female, whole blood; intravenous bolus, 3 mg/kg): 0.1 ± 0.02 h

N#C[C@@]1(n2ccc(N)nc2=O)O[C@H](CO)[C@@H](O)[C@H]1O
half-life (CD-1 mouse, plasma; intravenous, 15 mg/kg): 1.57 h
